Experimental data collected from several papers.
Every numbered part comes from another study and shows a few of its results, in no order.

Sample 1
Target: Histone acetyltransferase KAT6A, winged helix 2, GST fusion (KAT6A, Homo sapiens, UniProt Q92794, residues 85-181)
Method: protein binding microarray
Form: double-stranded DNA, one strand shown
Sample: in vitro
Concentration: not given
Setting: 8-mer, flanks averaged, mean of 2 arrays, mostly near background
Relative to: not given
Direction: higher = stronger binding
Residues (chain): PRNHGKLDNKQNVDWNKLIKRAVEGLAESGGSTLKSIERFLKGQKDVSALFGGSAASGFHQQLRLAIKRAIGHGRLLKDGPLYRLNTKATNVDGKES
The E-score of `CAGGCACA` is reported as -0.0635.
For `CTGTGCCC`, the E-score was 0.0995.
`TGTTGTAA` gave an E-score of -0.0282.
`ATAATCGC` has an E-score of 0.0739.
With `CAACGCTC` the E-score was -0.135.
The E-score of `CAGGTGTA` is reported as -0.118.
With `AGGGTACA` the E-score was -0.18.
For `CGTTCGAA`, the E-score was 0.0788.
`TATTAGAA` has an E-score of 0.039.
For `AGTAATTC`, the E-score was -0.139.
The E-score of `CAATATAG` is reported as -0.0784.
The E-score of `CTTGGCCA` is reported as 0.00154.
For `CGAGCACG`, the E-score was -0.0536.
With `ACATCATG` the E-score was -0.117.
The E-score of `GAACGATA` is reported as -0.165.
The E-score of `GAACACCC` is reported as 0.061.
`GTGTAGAA` gave an E-score of -0.0869.
`GCACCCAC` gave an E-score of 0.248.
For `CGGTCGAA`, the E-score was 0.0413.
`CTGAGGGA` gave an E-score of -0.104.
The E-score of `AACCGATG` is reported as -0.0435.
The E-score of `AATCGATA` is reported as 0.0449.
`GCTTACAC` has an E-score of 0.0536.
With `GGTCGCCA` the E-score was -0.048.

Sample 2
Target: Cyclic AMP-responsive element-binding protein 1, full length (CREB1, Homo sapiens, UniProt P16220, residues 1-327)
Sequence of UniProt P16220 (whole entry, looked up): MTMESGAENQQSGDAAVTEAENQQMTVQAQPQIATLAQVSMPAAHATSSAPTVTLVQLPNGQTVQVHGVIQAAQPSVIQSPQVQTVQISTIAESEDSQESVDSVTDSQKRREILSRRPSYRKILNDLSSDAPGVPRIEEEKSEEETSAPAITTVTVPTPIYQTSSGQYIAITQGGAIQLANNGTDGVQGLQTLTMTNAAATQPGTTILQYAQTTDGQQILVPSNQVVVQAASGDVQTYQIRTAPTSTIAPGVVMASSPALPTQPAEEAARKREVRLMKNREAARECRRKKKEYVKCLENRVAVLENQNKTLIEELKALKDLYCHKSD
Method: protein-binding microarray
Form: hairpin DNA
Sample: in vitro
Concentration: not given
Setting: whole hairpin DNA, median over replicate spots
Relative to: not given
Direction: higher = stronger binding
`GAGGCCGCCGACGTCGTGCCTCCTGGCACGACGTCGGCGGCCTCACACTC (5mC at 9 15 29 35)` gave a median fluorescence of 3900 a.u.
`GAGGCCGACGACGTGGTGCCTCCTGGCACCACGTCGTCGGCCTCACACTC (5mC at 9 29 35)` has a median fluorescence of 5200 a.u.
The median fluorescence of `GAGGCCGGCTGCGGTCAGCCTCCTGGCTGACCGCAGCCGGCCTCACACTC (5mC at 12 32)` is reported as 2620 a.u.
For `GAGGCCGACGAGGTCGTGCCTCCTGGCACGACCTCGTCGGCCTCACACTC (5mC at 9 15 29 35)`, the median fluorescence was 2690 a.u.
The median fluorescence of `GAGGCCTGCTGACGTCAGCCTCCTGGCTGACGTCAGCAGGCCTCACACTC` is reported as 16800 a.u.
With `GAGGCCGCCGACGTCGTGCCTCCTGGCACGACGTCGGCGGCCTCACACTC (5mC at 8 9 15 29 35)` the median fluorescence was 4300 a.u.
With `GAGGCCGGCTGACGTAAGCCTCCTGGCTTACGTCAGCCGGCCTCACACTC` the median fluorescence was 9310 a.u.
The median fluorescence of `GAGGCCGACGGCGTCGTGCCTCCTGGCACGACGCCGTCGGCCTCACACTC (5mC at 9 15 29 35)` is reported as 3130 a.u.
`GAGGCCGGATGACCGCAGCCTCCTGGCTGCGGTCATCCGGCCTCACACTC` gave a median fluorescence of 3150 a.u.
`GAGGCCGACGACTTCGTGCCTCCTGGCACGAAGTCGTCGGCCTCACACTC (5mC at 9 15 29 35)` gave a median fluorescence of 2580 a.u.
`GAGGCCGGATGACGTCTGCCTCCTGGCAGACGTCATCCGGCCTCACACTC` gave a median fluorescence of 9090 a.u.
`GAGGCCGCGGACGTCGTGCCTCCTGGCACGACGTCCGCGGCCTCACACTC (5mC at 15 29 35)` has a median fluorescence of 3330 a.u.
`GAGGCCGGATGACGTCAGCCTCCTGGCTGACGTCATCCGGCCTCACACTC (5mC at 13 31)` has a median fluorescence of 3330 a.u.
The median fluorescence of `GAGGCCGGTTGACGTCAGCCTCCTGGCTGACGTCAACCGGCCTCACACTC` is reported as 9770 a.u.
`GAGGCCGGCTGACGTCAGCCTCCTGGCTGACGTCAGCCGGCCTCACACTC (5mC at 34)` gave a median fluorescence of 5370 a.u.
`GAGGCCCGCTGACGTCAGCCTCCTGGCTGACGTCAGCGGGCCTCACACTC (5mC at 7 37)` gave a median fluorescence of 13300 a.u.
The median fluorescence of `GAGGCCGACGACGTCCGGCCTCCTGGCCGGACGTCGTCGGCCTCACACTC (5mC at 9 15 35)` is reported as 2970 a.u.

Sample 3
Target: Interferon regulatory factor 7, full length, phosphomimetic (IRF7, Homo sapiens, UniProt Q92985, residues 1-503, S101K/S471D/S472D/S475D/S476D/S477D/S483D/S484D/S487D)
Sequence of UniProt Q92985 (whole entry, unmodified, looked up): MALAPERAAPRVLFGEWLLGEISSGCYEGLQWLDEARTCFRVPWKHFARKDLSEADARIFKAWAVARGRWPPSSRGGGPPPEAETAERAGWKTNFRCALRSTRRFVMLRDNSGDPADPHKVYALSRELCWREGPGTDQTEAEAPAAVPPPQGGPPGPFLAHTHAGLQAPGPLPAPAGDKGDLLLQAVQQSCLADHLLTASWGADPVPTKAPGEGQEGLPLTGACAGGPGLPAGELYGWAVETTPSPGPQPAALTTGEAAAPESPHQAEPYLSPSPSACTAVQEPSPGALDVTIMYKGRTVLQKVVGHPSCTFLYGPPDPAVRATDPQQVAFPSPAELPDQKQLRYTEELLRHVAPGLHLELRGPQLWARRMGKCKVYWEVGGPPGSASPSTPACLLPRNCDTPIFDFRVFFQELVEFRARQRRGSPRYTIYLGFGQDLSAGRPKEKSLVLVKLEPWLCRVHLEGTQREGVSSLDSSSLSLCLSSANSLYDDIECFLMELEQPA
Method: protein-binding microarray
Form: double-stranded DNA, one strand shown
Sample: in vitro
Concentration: 250 nM
Setting: 60-bp whole probe
Together with: salmon DNA 0.4 mg/ml
Relative to: random background probes
Direction: higher = stronger binding
Shared flanks, not repeated: GCCTAGCAC … GTCTTGATTCGCTTGACGCTGCTG
`TTAGGTCTCCTACTACTTTAGTGCTAG` has a log fluorescence of -0.15 z-score.
`TCATACTTGTGTCTAGAACTGTGCTAG` gave a log fluorescence of 0.184 z-score.
For `TTAGGTTTCCTGTCCCTTTAGTGCTAG`, the log fluorescence was 1.29 z-score.
The log fluorescence of `GGGGATAAACTTAATGGATGGTGCTAG` is reported as -0.403 z-score.
The log fluorescence of `TTAGGTATCCTGTTCCTTTAGTGCTAG` is reported as 0.48 z-score.
`TAACTTTTTTTTTTCCCTGAGTGCTAG` gave a log fluorescence of 0.499 z-score.
For `TTTTTTTTTTTTTTTTGTATGTGCTAG`, the log fluorescence was 0.659 z-score.
The log fluorescence of `TGGGGCTGTATCATCTGAAGGTGCTAG` is reported as -0.921 z-score.
For `GACGAACTGGGGTATCGAGTCGTGCTA`, the log fluorescence was 0.224 z-score.
With `TTAGATATCAGTCTCAATTAGTGCTAG` the log fluorescence was 0.373 z-score.
With `GTTGGGGCGGGGCGGGGTGGGTGCTAG` the log fluorescence was 4.13 z-score.
With `GACGTACTGGGTTTCGGGACGTGCTAG` the log fluorescence was 2.31 z-score.
`GGCGGTATCGACTATCGGGACGTGCTA` gave a log fluorescence of 0.187 z-score.
The log fluorescence of `GACGGGTTCGACTATCGGGACGTGCTA` is reported as 0.209 z-score.
With `GACGAACTAGGGTTTCGAGACGTGCTA` the log fluorescence was 2.1 z-score.
With `TCAAGTTTTCTTTTCATACTGTGCTAG` the log fluorescence was 3.27 z-score.
`GAAGGACTGGGTTTCGGGACGTGCTAG` gave a log fluorescence of 2.26 z-score.
With `GACGGTATCGACTACCGGGACGTGCTA` the log fluorescence was 0.407 z-score.
With `TGTTTTTGCTTTCTTTATGTGTGCTAG` the log fluorescence was 3.26 z-score.

Sample 4
Target: Ras GTPase-activating protein-binding protein 1, full length (G3BP1, Homo sapiens, UniProt Q13283)
Sequence of UniProt Q13283 (whole entry, looked up): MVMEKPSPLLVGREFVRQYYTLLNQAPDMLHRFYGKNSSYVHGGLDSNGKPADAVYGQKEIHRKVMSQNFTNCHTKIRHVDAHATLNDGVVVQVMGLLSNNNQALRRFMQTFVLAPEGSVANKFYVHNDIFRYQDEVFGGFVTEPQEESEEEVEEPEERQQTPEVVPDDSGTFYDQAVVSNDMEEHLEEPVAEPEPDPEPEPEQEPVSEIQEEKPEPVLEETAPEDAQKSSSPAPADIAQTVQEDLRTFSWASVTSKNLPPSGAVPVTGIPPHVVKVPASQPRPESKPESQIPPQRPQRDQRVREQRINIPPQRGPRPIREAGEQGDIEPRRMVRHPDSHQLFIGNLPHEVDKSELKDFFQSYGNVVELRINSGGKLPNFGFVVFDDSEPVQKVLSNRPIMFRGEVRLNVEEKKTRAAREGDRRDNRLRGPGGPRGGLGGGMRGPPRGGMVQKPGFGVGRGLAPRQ
Method: RNA Bind-n-Seq
Form: RNA
Sample: in vitro
Concentration: 200 nM
Setting: whole 134-nt RNA, ends assumed
Together with: 150 mM LiCl
Relative to: input library
Direction: higher = stronger binding
All molecules: 7-deaza-guanosine replaces G
Shared flanks, not repeated: GGGAGUUCUACAGUCCGACGAUC … UGGAAUUCUCGGGUGUCAAGG
With `UGUGAGGUGGAUUUUGUUUAUUUUUUUAGCUCAUUUCCAGGGGUGGGAAUUUUUUUUUAAUAUGUGUCAUGAAUAAAGUUGUUUUUGAAA` the log2 enrichment was 0.236.
`CAAGUCCUGUGCUACACAUCGUAUGUACCGAAUCGGAAAGGUUUUUGGAAAAAGGAAAGUAUUAUGUUACGCCGUUCGGAUCUGCACUUC` has a log2 enrichment of -0.515.
With `UAACUUUAGAGGAGGAUCUGAUGGAUAUGGCAGUUGACGUGGAUUUGGGGAUGGCUAUAAUGGGUAUGGAGGAGGACCUGGAGGUGGCAA` the log2 enrichment was -0.156.
The log2 enrichment of `AGUCCUGUGCUACACAUCGUAUGUACCGAAUCGGGUUUUUUUGGGAAAGGGUUUGGGAAAGUAUUAUGUUACGCCGUUCGGAUCUGCACU` is reported as -2.1.
`GCAGGAAGUAAAAACAAAUGGAAAUGCUUCGGAUGGUGGCAGGGGUGGGGGUUGCUAAGGAAAGGGUGGGAUGGGAGUGGGUAAAGAGUU` has a log2 enrichment of -0.23.
For `UCCUGUGCUACACAUCGUAUGUACCGAAUCGGGUUUUUUUGGGAAAAAAAGGGAAAGGGAAAGUAUUAUGUUACGCCGUUCGGAUCUGCA`, the log2 enrichment was -1.41.
`UCAAGUCCUGUGCUACACAUCGUAUGUACCGAAUCGGAGGAAAAAAAGGAAAGGAAAGUAUUAUGUUACGCCGUUCGGAUCUGCACUUCC` has a log2 enrichment of -0.621.
`CACAGACAACACGCACCCACACAGACACAGAGGGAAGGGGUUGGGAUGGGGACAGGGUGCACAGCAGGGCGGGGUAGGACCAAAGCCCCU` has a log2 enrichment of -0.842.

For quick reference, copied from above (sample 2):
`GAGGCCGGATGACGTCAGCCTCCTGGCTGACGTCATCCGGCCTCACACTC (5mC at 13 31)` has a median fluorescence of 3330 a.u.
`GAGGCCGGATGACCGCAGCCTCCTGGCTGCGGTCATCCGGCCTCACACTC` gave a median fluorescence of 3150 a.u.
For `GAGGCCGACGAGGTCGTGCCTCCTGGCACGACCTCGTCGGCCTCACACTC (5mC at 9 15 29 35)`, the median fluorescence was 2690 a.u.
`GAGGCCGACGACGTGGTGCCTCCTGGCACCACGTCGTCGGCCTCACACTC (5mC at 9 29 35)` has a median fluorescence of 5200 a.u.
`GAGGCCGCCGACGTCGTGCCTCCTGGCACGACGTCGGCGGCCTCACACTC (5mC at 9 15 29 35)` gave a median fluorescence of 3900 a.u.
The median fluorescence of `GAGGCCGACGGCGTCGTGCCTCCTGGCACGACGCCGTCGGCCTCACACTC (5mC at 9 15 29 35)` is reported as 3130 a.u.
`GAGGCCCGCTGACGTCAGCCTCCTGGCTGACGTCAGCGGGCCTCACACTC (5mC at 7 37)` gave a median fluorescence of 13300 a.u.
`GAGGCCGCGGACGTCGTGCCTCCTGGCACGACGTCCGCGGCCTCACACTC (5mC at 15 29 35)` has a median fluorescence of 3330 a.u.
The median fluorescence of `GAGGCCGACGACGTCCGGCCTCCTGGCCGGACGTCGTCGGCCTCACACTC (5mC at 9 15 35)` is reported as 2970 a.u.
